Published values gathered from unrelated publications.
Each numbered part is a random draw from the data of one study; scales do not carry over between parts. Substitutions count along the parent as printed.

Set 1
Target: ABI1, truncated, D143A, DHFR fusion (Arabidopsis thaliana, UniProt P49597)
Technique: DHFR PCA, dose-response
Medium: yeast
Setting: Hill fit, mean, not affinity
With: (+)-ABA, dose series
Direction: lower = more sensitive
Parent: PYL1, truncated, DHFR fusion (Arabidopsis thaliana, UniProt Q8VZS8); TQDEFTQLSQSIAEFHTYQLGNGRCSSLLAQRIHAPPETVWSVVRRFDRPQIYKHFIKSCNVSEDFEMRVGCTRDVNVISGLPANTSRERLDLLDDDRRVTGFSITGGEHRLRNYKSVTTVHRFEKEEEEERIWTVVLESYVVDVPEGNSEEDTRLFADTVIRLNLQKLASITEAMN
Change | ABA EC50
Y141F | 26.1 µM
Y53R | 82.5 µM
V145L | 11.4 µM
E38M | 102 µM
E38F | 91 µM
I57F | 390 µM
N22G | 2.8 µM
S26H | 3.62 µM
V143S | 76.7 µM
C25K | 198 µM
R32F | 3.52 µM
M176N | 4.67 µM
E64Y | 6.53 µM
S27A | 8.82 µM
F15N | 16.9 µM
R132L | 2.46 µM

Set 2
Target: Histone acetyltransferase KAT6A, both winged helices, GST fusion (KAT6A, Homo sapiens, UniProt Q92794, residues 1-181)
Technique: protein binding microarray
Form: double-stranded DNA, one strand shown
Medium: in vitro
Concentration: not given
Setting: 8-mer, flanks averaged, mean of 2 arrays, mostly near background
Relative to: not given
Direction: higher = stronger binding
Construct (chain): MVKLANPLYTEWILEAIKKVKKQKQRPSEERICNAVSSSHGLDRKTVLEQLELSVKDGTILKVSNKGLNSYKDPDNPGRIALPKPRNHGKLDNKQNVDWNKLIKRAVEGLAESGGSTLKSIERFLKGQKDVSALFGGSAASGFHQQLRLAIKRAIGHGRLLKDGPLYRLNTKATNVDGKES
Oligonucleotide | E-score
GAACGAGC | -0.0284
AACGAGAA | -0.141
ATGTTCTA | -0.101
ACCGGGCG | 0.164
AGTGATTG | -0.0936
ATCATAGG | 0.0114
ATCTGATG | -0.157
GAGAAGGA | -0.157
CCCAGGGC | -0.0267
CTCTTCAG | -0.0668
CTCGCTAC | -0.0947
ATTTGAAA | 0.0355
CCAGCCCC | -0.128
CTAGTTAA | -0.114
ATCGATCC | 0.045
ACTCCGTG | 0.149
CGATTTTA | -0.0478
ACTGTTTA | -0.0201
ACTACAAA | -0.0787
TCCTACCA | -0.183
AGTAATCC | -0.137

Set 3
Target: FOSL1, bZIP domain (human)
Technique: DHFR protein complementation
Medium: yeast
Setting: single substitutions, most at no-binding floor
Relative to: wild-type JUN-FOS pair
Direction: higher = stronger binding
Parent: JUN, bZIP domain (human); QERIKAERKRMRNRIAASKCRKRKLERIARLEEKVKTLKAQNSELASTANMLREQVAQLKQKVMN; partner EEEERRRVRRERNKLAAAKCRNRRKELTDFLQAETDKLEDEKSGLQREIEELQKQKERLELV
Change | binding fitness
K36M | -0.326 natural log
Q58P | -1.34 natural log
N42A | -1.04 natural log
E33G | -0.733 natural log
E54C | -0.831 natural log
V56D | -1.54 natural log
A46C | -0.785 natural log
R30S | -0.236 natural log
S47P | -1.34 natural log
L52Q | -1.53 natural log
R30T | -0.133 natural log
T37F | -0.43 natural log
L31E | -1.21 natural log
K34H | -0.26 natural log
N42H | -1.25 natural log
A49Y | -0.894 natural log
N42L | -0.536 natural log
R30H | -0.253 natural log

Set 4
Target: RING finger protein unkempt homolog, zinc fingers 1-6, GST-SBP tag (UNK, Homo sapiens, UniProt Q9C0B0, residues 30-357)
Sequence of UniProt Q9C0B0 (30-357, looked up): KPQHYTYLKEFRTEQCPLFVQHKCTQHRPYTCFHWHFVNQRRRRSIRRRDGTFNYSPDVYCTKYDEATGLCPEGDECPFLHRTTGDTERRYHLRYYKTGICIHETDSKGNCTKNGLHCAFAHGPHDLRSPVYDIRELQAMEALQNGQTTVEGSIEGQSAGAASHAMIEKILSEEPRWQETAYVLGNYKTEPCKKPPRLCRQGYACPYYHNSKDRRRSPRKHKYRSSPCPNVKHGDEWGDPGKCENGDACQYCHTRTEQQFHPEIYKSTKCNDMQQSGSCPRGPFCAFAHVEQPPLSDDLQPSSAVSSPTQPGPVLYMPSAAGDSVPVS
Technique: RNA Bind-n-Seq
Form: RNA
Medium: in vitro
Concentration: not given
Setting: RNA with constant flanks, human and mouse sites, ends assumed
Relative to: input RNA pool
Direction: higher = stronger binding
Oligonucleotide | bound/input enrichment
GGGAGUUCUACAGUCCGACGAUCCAGCGCGUGGGACGAAUUCAUACCAGUGUGCACUGCAAGCUGAGGUAUGGGCUUUUGGCCGCCAUUCUUGGUGAUAAGACAACCAAAAAGCUGCAUGAGUACAGCCGAGUGAUAACAGUACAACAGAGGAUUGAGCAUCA | 0.15 ratio
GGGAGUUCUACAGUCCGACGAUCUCCCCCUCACUUUUUCUCCUUAUUAUUGAGAGUAUAAACCUGCAAAGCUCAGCUCUACUUUGGUUUUGAAAGUUGAAGCUUCUCUGCUUCCGUGCGAGCACAGGCCUCUGUCCCCUUCGACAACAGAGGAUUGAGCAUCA | 0.297 ratio
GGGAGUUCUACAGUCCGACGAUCGCGGUGGUGGUGGAGAAGGACGCAGUGUUUAUUCCAGCAGGGUGGGAUAAUGAUAAGAAAAUAGGAAUAUUACAUGAAAAUUUUCAGACUUUGAAAGUAGAAGAUAAUUUUGAAGACAUCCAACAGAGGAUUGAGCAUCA | 3.15 ratio
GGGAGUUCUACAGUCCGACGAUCCUGCGCCAGAGAACAGAGAAUAUAGAUAUUAAAAAGUAUUGUGUGCAGUACCUGGAGGAUGUAGGUUCUUUUGCAUACACUCGACACACUCUUAGAGAGCUUGAAGCUAAAGCCUACAAACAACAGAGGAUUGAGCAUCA | 7.78 ratio
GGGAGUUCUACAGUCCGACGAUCCUGCACGAGUGCCCCCACAUCCCCACCCCUGUGUGCAUUGGGCACCGGGAUGCACCCUCCUUCUCAUCCCCACCACGCCAGGCUCCUGAGCCAUCCCUCUUCUUCCAGGAUCCCCCUGGACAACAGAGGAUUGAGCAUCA | 0.283 ratio
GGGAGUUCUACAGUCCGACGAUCAGGCAGGAUGGAAGUGACACUGUAGGGUUUUUUGUUUUUUGGGUUUUUUUUUUUUUUUUUUGUUUUUUUUGUUUUUUGGUGUGUGUGUAAAAAUUGUGUCGUGAUGGAAUUUUUGGCGUGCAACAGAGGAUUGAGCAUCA | 9.31 ratio
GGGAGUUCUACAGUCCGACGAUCUCUUAAUCAUAGUCUACCAUCAAAUAUUUUAGGAGUAUCUUUAAUGUUUAGAUAGUAUAUUAGCAGCAUGCAAUAAUUACAUCAUAAGUUCUCAAGCAGAGGCAGUCUAUUGCAAGGACCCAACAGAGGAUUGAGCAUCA | 1.8 ratio
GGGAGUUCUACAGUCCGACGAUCAGAUUGUUCUCAAGCAGCUUGGUGGCCAUUGUCAGCCUCAAAGCUCCCAGGAAGCUGAAGGUUUGCCAUUUUAAGAAGGGAACUGAGAUAUGCAACUACAGCUACUCCAACACUAUCCUGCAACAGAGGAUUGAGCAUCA | 0.323 ratio
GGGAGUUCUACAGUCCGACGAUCUUUGCCACAGGUGGUUCUGAUGGCUUUGUAAAUAUUUGGGAUCCAUUUAACAAAAAGCGACUGUGCCAAUUCCAUCGGUACCCCACGAGCAUCGCAUCACUUGCCUUCAGUAAUGAUGGGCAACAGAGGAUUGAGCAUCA | 0.169 ratio
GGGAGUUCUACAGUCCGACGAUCAAACCUUCAACUGUAGAAGUUCUAGAAAGUAUAGAUAAGGAAAUUCAAGCAUUGGAAGAAUUUAGGGAAAAAAAUCAGAGAUUACAAAAAUUAUGGGUUGGAAGAUUAAUUCUGUAUUCCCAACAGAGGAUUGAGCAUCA | 11.1 ratio
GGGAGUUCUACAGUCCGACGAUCUAUGGUGCACUUUUUUCGCUAUUUAAGUUGGAUAUUUCUCUACAUUCCUGAAACAAUUUUUAGGUUUUUUUUGUACUAGAAAAUGCAGGCAGUGUUUUCACAAAAGUAACUGUACAGUGACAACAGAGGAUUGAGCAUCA | 1.22 ratio

Set 5
Target: CCNB3, cyclin fold, Cln2 fusion (human)
Technique: yeast growth competition, sequencing
Medium: yeast
Setting: weak parent motif
Relative to: not given
Direction: higher = stronger binding
Parent: BORA docking peptide (human); SSLRRKLFLDGNG; partner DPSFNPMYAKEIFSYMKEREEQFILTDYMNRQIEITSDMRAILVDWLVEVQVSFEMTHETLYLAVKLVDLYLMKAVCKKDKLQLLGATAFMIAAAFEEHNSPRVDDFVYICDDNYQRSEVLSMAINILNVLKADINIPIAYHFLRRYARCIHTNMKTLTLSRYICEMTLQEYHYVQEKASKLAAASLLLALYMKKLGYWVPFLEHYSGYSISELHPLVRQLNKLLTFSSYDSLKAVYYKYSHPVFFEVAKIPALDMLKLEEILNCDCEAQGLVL
Change | normalised enrichment score
L9F | 0.795
R5K L9F | 0.752
D10A | 0.115
F8A | 0.365
G13A | 0.0673
N12A | 1.01
S1A | 0.46
L7A | -0.0252

Set 6
Target: Ras GTPase-activating protein-binding protein 1, full length (G3BP1, Homo sapiens, UniProt Q13283)
Sequence of UniProt Q13283 (whole entry, looked up): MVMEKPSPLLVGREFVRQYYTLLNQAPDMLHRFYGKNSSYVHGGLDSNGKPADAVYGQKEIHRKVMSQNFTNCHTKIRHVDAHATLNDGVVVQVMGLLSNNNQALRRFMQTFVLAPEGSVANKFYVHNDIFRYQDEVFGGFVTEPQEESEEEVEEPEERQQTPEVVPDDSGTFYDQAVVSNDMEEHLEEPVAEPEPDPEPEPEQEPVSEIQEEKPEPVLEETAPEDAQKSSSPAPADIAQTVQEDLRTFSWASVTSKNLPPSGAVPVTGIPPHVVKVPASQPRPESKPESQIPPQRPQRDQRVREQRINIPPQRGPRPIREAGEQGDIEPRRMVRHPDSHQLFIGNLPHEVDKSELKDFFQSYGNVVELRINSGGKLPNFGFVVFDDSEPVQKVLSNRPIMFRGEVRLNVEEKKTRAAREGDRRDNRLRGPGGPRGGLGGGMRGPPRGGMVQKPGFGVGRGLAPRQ
Technique: RNA Bind-n-Seq
Form: RNA
Medium: in vitro
Concentration: 200 nM
Setting: whole 134-nt RNA, ends assumed
With: 150 mM LiCl
Relative to: input library
Direction: higher = stronger binding
All molecules: 7-deaza-guanosine replaces G
Oligonucleotide | log2 enrichment
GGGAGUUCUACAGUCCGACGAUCUCAAGUCCUGUGCUACACAUCGUAUGUACCGAAUCGGUUUGGAAAAAAAGGUGGAAAGUAUUAUGUUACGCCGUUCGGAUCUGCACUUCCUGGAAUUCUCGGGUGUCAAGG | -0.7
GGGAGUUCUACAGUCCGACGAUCCUGUGCUACACAUCGUAUGUACCGAAUCGGUUUUUUUGGGGUUUUUUUGGGGUUUUUUUGGGAAAGUAUUAUGUUACGCCGUUCGGAUCUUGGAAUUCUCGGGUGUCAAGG | 1.47
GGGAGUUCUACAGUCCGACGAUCAAUGUGUCCUCCCUGUCCAAAUUGGGAAUGACUUAAUGUCAAUUUGUUUGUUGGUUGUUUUAAUAAUACUUCCUUAUGUAGCCAUUAAGAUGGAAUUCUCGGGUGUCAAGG | -0.126
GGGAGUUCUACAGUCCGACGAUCGCAGGAAGUAAAAACAAAUGGAAAUGCUUCGGAUAGUGGCAGGGGUGGGGGUUGCUAAGGAAAGGGCGGGAUGGGAGUGGGUAAAGAGUUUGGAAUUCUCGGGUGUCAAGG | 0.221
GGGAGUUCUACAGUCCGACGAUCUGGCCCUGGUGGCAUGCGGGGAGGAAGAGGUGGCCUCAUGGAUCGUGGUGGUCCCGGUGGAAUCUUCAGAGGUGGCCGUGGUGGAGACAGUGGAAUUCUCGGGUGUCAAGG | 0.329
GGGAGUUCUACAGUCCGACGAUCUAACUUUAGAGGAGGAUCUGAUGGAUAUGGCAGUGGAUGUGGAUUUGGGGAUGGCUAUAAUGGGUAUGGAGGAGGACCUGGAGGUGGCAAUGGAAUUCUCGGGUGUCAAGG | 0.354
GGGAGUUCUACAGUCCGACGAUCCACAGACAACACGCACCCACACAGACACAGAGGGAAUGGGUUGGGAUGGGGACAGGGUGCACAGCAGGGCGGGGUAGGACCCCAGCCCCUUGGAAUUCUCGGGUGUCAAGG | -1.56
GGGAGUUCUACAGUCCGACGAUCUAGUUUAUGCCAACGUGACUUCAUUCAUACAGAUGAACCAAGGAUCGGGAUAGCAGUAUAAAAUUAGAAUCAAGACAGCUGACUGCUCAGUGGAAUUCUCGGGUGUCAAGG | -3.52
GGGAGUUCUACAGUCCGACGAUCAGUCCUGUGCUACACAUCGUAUGUACCGAAUCGGGCCCCGGCCCCGGGGCCCCGGGGAAAGUAUUAUGUUACGCCGUUCGGAUCUGCACUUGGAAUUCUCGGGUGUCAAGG | -2.48
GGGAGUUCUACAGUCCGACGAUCCUCAAGUCCUGUGCUACACAUCGUAUGUACCGAAUCGGGUUGGGGUUGGGUUGGAAAGUAUUAUGUUACGCCGUUCGGAUCUGCACUUCCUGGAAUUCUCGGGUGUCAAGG | 0.35
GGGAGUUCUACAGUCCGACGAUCGUCCUGUGCUACACAUCGUAUGUACCGAAUCGGGUUUUUGGGUUUUUGGGGUUUUUGGAAAGUAUUAUGUUACGCCGUUCGGAUCUGCACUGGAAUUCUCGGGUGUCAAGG | -0.0617

Some of these lines once more (set 3):
Change | binding fitness
A46C | -0.785 natural log
T37F | -0.43 natural log
V56D | -1.54 natural log
R30S | -0.236 natural log
L52Q | -1.53 natural log
R30H | -0.253 natural log
Q58P | -1.34 natural log
K34H | -0.26 natural log
R30T | -0.133 natural log
